Published values collected from several papers.
Compare with care: the assays were run in different laboratories. ± gives the spread as reported.
Target: Cytochrome P450 1A2 (CYP1A2, Homo sapiens, UniProt P05177)
UniProt P05177, sequence (whole entry, looked up): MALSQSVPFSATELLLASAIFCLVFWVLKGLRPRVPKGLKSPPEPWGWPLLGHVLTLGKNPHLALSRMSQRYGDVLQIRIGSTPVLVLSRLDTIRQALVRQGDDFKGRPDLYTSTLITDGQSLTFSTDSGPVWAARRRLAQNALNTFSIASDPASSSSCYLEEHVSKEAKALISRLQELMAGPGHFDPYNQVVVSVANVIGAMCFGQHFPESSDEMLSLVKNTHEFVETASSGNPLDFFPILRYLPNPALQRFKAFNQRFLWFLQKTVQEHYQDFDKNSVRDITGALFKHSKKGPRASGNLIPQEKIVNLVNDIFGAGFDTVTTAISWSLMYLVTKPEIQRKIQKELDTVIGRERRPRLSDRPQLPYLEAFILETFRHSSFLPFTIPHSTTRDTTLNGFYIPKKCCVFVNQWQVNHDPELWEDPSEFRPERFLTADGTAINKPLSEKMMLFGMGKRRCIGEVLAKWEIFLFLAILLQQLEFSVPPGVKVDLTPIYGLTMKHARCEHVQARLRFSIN

Structure (SMILES)	test	system	setting	IC50 [µM]
Cc1ccc(N2CC3CCC(C2)N3C)cc1C(=O)N[C@H](C)c1cc(-c2cnn(C)c2)nc2ccccc12	enzyme activity			> 50
c1ccc(C2(CCNC3CCC4(SCCS4)c4ccccc43)CCOC3(CCCC3)C2)nc1 (centres unmarked)	enzyme activity, inhibitor	human, liver microsomes		> 30
C[C@H](NCc1ccc(-c2ccc(C(F)(F)F)cc2)cc1)C(N)=O	enzyme activity, inhibitor, luciferase	1A2	pH 7.4	> 10
COc1ccc(F)cc1S(=O)(=O)Nc1cnc2c(c1)C(=O)NCCO2	enzyme activity, inhibitor	human, liver microsomes	with preincubation	> 100
CCCCCc1cc(O)c2c(c1)OC(C)(C)C1CCC(C)=CC21 (single isomer, unassigned; (-))	enzyme activity, inhibitor	microsomes from HEK293 cells	pH 7.4, added: phenacetin	2.7 ± 1.2
O=C1Cc2cc(CCN3CCN(C4=NS(=O)(=O)c5ccccc54)CC3)c(Cl)cc2N1	inhibitor	human liver microsomes	added: phenacetin	17.1
CCn1ccc(-c2cc(-c3cnn(C)c3)cc([C@@H](C)NC(=O)c3cc(OCCN(C)C)ccc3C)c2)n1	enzyme activity, inhibitor	pooled human liver microsomes	10 (unit not given)	> 50
C(#Cc1cncc(OC[C@@H]2CCN2)c1)c1ccccc1	enzyme activity, inhibitor, fluorescence			10.6
